Experimental data collected from several papers.
Compare with care: the assays were run in different laboratories. ± gives the spread as reported.

The plasma concentration of `CC(=O)c1cnc(N)nc1N1CC[C@H]1c1nn2ccc(Cl)c2c(=O)n1-c1ccccc1` is reported as 150 ± 35 ng/mL (female Wistar rat; oral, 3 mg/kg two doses at 0 and 8 h, 24 h).
For `CCCCCCCCCCCCCCCC(=O)NCCOCCOCCOCCOCCOCCOCCOCCOCCC(=O)NCCCC[C@H](NC(=O)CNC(=O)[C@@H]1CSSC[C@H](N)C(=O)N[C@@H](Cc2ccc(O)cc2)C(=O)N[C@@H]([C@@H](C)CC)C(=O)N[C@@H](CCC(N)=O)C(=O)N[C@@H](CC(N)=O)C(=O)N1)C(=O)NCC(N)=O`, “plasma to brain unbound ratio” read 0.001 (rat; subcutaneous depot, 10 mg/kg).
The plasma concentration of `C[Si](C)(C)C[C@H](CN)CC(=O)O` is reported as 98.8 µM (Sprague-Dawley rat male, plasma; oral, 30 mg/kg, 1 h).
`[2H]C([2H])([2H])C(c1cc2nnc(-c3cc(F)ccc3F)n2nc1OCc1ncnn1C)(C([2H])([2H])[2H])C([2H])([2H])[2H]` gave a plasma concentration of under 200 ng/mL (GAERS rat, plasma; oral, dose not given, about 2.5 h, exposure at efficacy).
The plasma concentration of `O=c1c2cc(Cl)ccc2sc2c(NCc3ccccc3)nc3ccccc3c12` is reported as 2.84 ± 0.19 ng/mL (rat Sprague-Dawley male, plasma; intravenous, 3 mg/kg, 1440 min).
With `Cc1cc2c(NC(=O)N[C@@H]3CC(C)(C)Oc4c(OC(F)(F)F)cccc43)cccc2cn1` the plasma concentration was 15500 ng/mL (Sprague-Dawley rat, male; oral, 100 µmol/kg, telemetry study).
`Nc1ccc(-c2ccc3ncc4c(=O)n(COP(=O)([O-])[O-])c(=O)n(-c5cccc(C(F)(F)F)c5)c4c3n2)cn1.[Na+].[Na+]` — result for plasma exposure: “not detected” (Sprague Dawley rat, plasma; oral, dose not given).
For `Nc1nc(Cl)nc2c1ncn2Cc1cc(OCC(F)F)cc(OC(F)F)c1`, the plasma concentration was 275 ng/mL (Sprague-Dawley rat, plasma; oral, 5.0 mg/kg, 24 h).
For `CCCCCCCCCCCC(=O)OC[C@H]1O[C@@H](n2cnc(N)nc2=O)C[C@@H]1OC(=O)CCCCCCCCCCC`, “plasma concentration ratio” read 8 fold (rat, Wistar, male, plasma; intravenous, 21 µmol/kg, 2 min; reference: over decitabine, same molar dose).

Some of these lines once more:
The plasma concentration of `O=c1c2cc(Cl)ccc2sc2c(NCc3ccccc3)nc3ccccc3c12` is reported as 2.84 ± 0.19 ng/mL (rat Sprague-Dawley male, plasma; intravenous, 3 mg/kg, 1440 min).
